Measurements from different studies.
± marks the error that the study gave.
Organism: HIV-1

| Substance | test | test system | conditions | EC50 |
| --- | --- | --- | --- | --- |
| Cc1ccc(S(=O)(=O)N2C(=O)CSC2c2ccc(Cl)cc2)cc1 (stereo not shown) | viral cytopathicity, MTT | MT-4, IIIB |  | > 125000 nM |
| CC(=NNC(=O)CN1c2c(-c3ccccc3)n[nH]c2-c2ccccc2S1(=O)=O)c1cc2ccccc2o1 | viral replication | PBMC |  | 79000 nM |
| O=C(O)c1cccc(-c2ccc(/C=C3\SC(=S)N(CCc4ccccc4)C3=O)o2)c1 | viral replication | MT-2 |  | < 100 nM |
| Cc1cn([C@H]2C[C@H](N=[N+]=[N-])[C@@H](CO)O2)c(=O)[nH]c1=O | viral replication | PBMC, LAI |  | 1.8 nM |
| Cc1ccc(S(=O)(=O)N2C(=O)CSC2c2ccc([N+](=O)[O-])cc2)cc1 (stereo not shown) | viral cytopathicity, MTT | MT-4, IIIB |  | > 125000 nM |
| NC(=O)CCNC(=O)c1ccccc1S | viral replication | human monocytes/macrophages, subtype B BaL, CCR5-tropic |  | 18600 nM |
| CC(=NNC(=O)CN1c2c(-c3ccccc3)n[nH]c2-c2ccccc2S1(=O)=O)c1ccc2c(c1)OCCO2 | viral replication | PBMC |  | > 100000 nM |
| N#Cc1ccc(Oc2cc(Cl)ccc2Cl)c(COCc2ccncc2)c1 | viral replication | MT-2, IIIB wild type |  | 1800 nM |
| Nc1nc2c(ncn2COCCO)c(=O)[nH]1 | giant cell formation | CCRF-CEM |  | > 250000 nM |
| N#Cc1ccc(Oc2cc(Cl)ccc2Cl)c(OCc2ccncc2)c1 | viral replication | MT-2, IIIB wild type |  | 12000 nM |
| CC(=O)OCC(COP(=O)(N[C@@H](C)C(=O)OCc1ccccc1)Oc1ccccc1)OCn1cnc2c(Cl)nc(N)nc21 (stereo partly shown) | viral replication | MT-4 | 72 h | 2000 nM |
| CC(=NNC(=O)CN1c2c(-c3ccccc3)n[nH]c2-c2ccccc2S1(=O)=O)c1nccs1 | viral replication | PBMC |  | > 100000 nM |
| Nc1c(C(=O)NCc2ccc(F)cc2F)c(=O)n(O)c2ncc(/C=C/C(=O)NCCO)cc12 | viral infectivity, single-round infection | HOS, integrase wild type |  | ≥ 200 nM |
| Cc1ccc(S(=O)(=O)N2C(=O)CSC2c2ccc(C(C)C)cc2)cc1 (stereo not shown) | viral cytopathicity, MTT | MT-4, IIIB |  | > 125000 nM |
| O=c1cc(-c2ccc(O)c(O)c2)oc2cc(O[C@@H]3O[C@H](CO)[C@@H](O)[C@H](O)[C@H]3O)cc(O)c12 | viral replication, item: p24 Gag | PBMCs from 3 donors, NL4.3 | day 6 | 2600 ± 800 nM |
| Cc1cc(/C=C/C#N)cc(C)c1Oc1ccc(N)c(Nc2ccc(C#N)cc2)n1 | viral replication | TZM-bl, NL4-3 |  | ≤ 0.7 nM |
| N=C(N)NCCC[C@H](NC(=O)[C@H](CCCNC(=N)N)NC(=O)[C@H](CCCNC(=N)N)NC(=O)[C@H](CCCNC(=N)N)NC(=O)[C@H](CCCNC(=N)N)NC(=O)[C@H](CCCNC(=N)N)NC(=O)[C@H](CCCNC(=N)N)NC(=O)CCCCCCCCCCCCC(=O)OC[C@@H]1O[C@H](n2ccc(N)nc2=O)CS1)C(=O)O | viral replication, MAGI single-round infection | BaL, R5-tropic | cell-free virus | 16600 nM |
| O=C(CN1CCN(S(=O)(=O)c2ccc([N+](=O)[O-])cc2)CC1=O)N[C@@H](Cc1cc(F)cc(F)c1)c1nc2ccccc2c(=O)n1-c1ccc(S(=O)(=O)N2CCOCC2)cc1 | viral replication, MTT | MT-4, IIIB |  | 160 ± 90 nM |
| O=C1Nc2ccc(Cl)cc2[C@@](C#CC2CC2)(C(F)(F)F)O1 | viral replication | MT4, IIIB wild type |  | 2.31 ± 0.23 nM |
| O=c1[nH]cnc2c1ncn2[C@H]1CC[C@@H](CO)O1 | viral cytopathicity, MTT | MT-4, IIIB |  | 18000 nM |
| CC(=NNC(=O)CN1c2c(-c3ccccc3)n[nH]c2-c2ccccc2S1(=O)=O)c1cc(C)sc1C | viral replication | PBMC |  | > 100000 nM |
| COC(=O)[C@H](C)NP(=O)(OCCOCn1cnc2c(=O)[nH]c(N)nc21)Oc1cccc2ccccc12 (stereo partly shown) | viral replication |  |  | 100 to 600 nM |

| Substance | test | test system | conditions | EC50 |
| --- | --- | --- | --- | --- |
| COc1ccc(-n2c([C@H](Cc3cc(F)cc(F)c3)NC(=O)CN3CCN(S(=O)(=O)c4ccc(N)cc4)CC3=O)nc3cc(F)ccc3c2=O)cc1 | viral replication, MTT | MT-4, IIIB |  | 310 ± 140 nM |
| delavirdine | viral replication | MT-2, IIIB wild type |  | 53 nM |
| c1ccc(SSc2ccccn2)nc1 | virucidal activity | CEM-SS, IIIB | 20 min, virions pretreated then washed | 2260 nM |
| CC(=NNC(=O)CN1c2c(-c3ccccc3)n[nH]c2-c2ccccc2S1(=O)=O)c1cc2ccccc2oc1=O | viral replication | PBMC |  | 22900 nM |
| COc1ccc(-n2c([C@H](Cc3cc(F)cc(F)c3)NC(=O)CN3CCN(S(=O)(=O)c4ccc(N)cc4)CC3=O)nc3cc(Cl)ccc3c2=O)cc1 | viral replication, MTT | MT-4, IIIB |  | 140 ± 30 nM |
| Cc1ccc(-c2ccc(/C=C3\SC(=S)N(CCc4ccccc4)C3=O)o2)cc1C(=O)O | viral replication | MT-2 |  | < 100 nM |
| COc1ccc(-n2c([C@H](Cc3cc(F)cc(F)c3)NC(=O)CN3CCN(S(=O)(=O)c4ccc([N+](=O)[O-])cc4)CC3=O)nc3cc(S(C)(=O)=O)ccc3c2=O)cc1 | viral replication, MTT | MT-4, IIIB |  | 1840 ± 250 nM |
| Cc1cc(C#N)cc(C)c1Oc1nc(Nc2ccc(C#N)cc2)nc(N)c1Br | viral replication, MTT | MT-4, IIIB, wild type |  | 4 nM |
| CC(=NNC(=O)CN1c2c(-c3ccccc3)n[nH]c2-c2ccccc2S1(=O)=O)c1ccc(Br)s1 | viral replication | PBMC |  | > 100000 nM |
| N=C(N)NCCC[C@H](NC(=O)[C@H](CCCNC(=N)N)NC(=O)[C@H](CCCNC(=N)N)NC(=O)[C@H](CCCNC(=N)N)NC(=O)[C@H](CCCNC(=N)N)NC(=O)[C@H](CCCNC(=N)N)NC(=O)[C@H](CCCNC(=N)N)NC(=O)CCCCCCCCCCCCC(=O)OC[C@@H]1O[C@H](n2cc(F)c(N)nc2=O)CS1)C(=O)O | viral replication, MAGI single-round infection | BaL, R5-tropic | cell-free virus | 1500 nM |
| COc1ccc(-n2c([C@H](Cc3ccccc3)NC(=O)CN3CCN(S(=O)(=O)c4ccc([N+](=O)[O-])cc4)CC3=O)nc3cc(Cl)ccc3c2=O)cc1 | viral replication, MTT | MT-4, IIIB |  | 2160 ± 260 nM |
| Cc1cc(C)cc(C(=O)c2cc(Cl)ccc2OCCn2c3c(c(=O)[nH]c2=O)CCC3)c1 | cell-to-cell transmission | MOLT-4/R5 and GHOST(3)R5, CCR5-tropic | CD4-dependent | 40 nM |
| Cc1ccc(S(=O)(=O)N2C(=O)CSC2c2ccccc2Cl)cc1 (stereo not shown) | viral cytopathicity, MTT | MT-4, IIIB |  | > 125000 nM |
| Cc1ccc(N2C(=O)CCC2(C#N)c2ccc(OC(C)C)cc2)cc1 (stereo not shown) | viral replication | human PBMC, LAI |  | 37300 nM |
| COc1ccc(-n2c([C@H](Cc3ccccc3)NC(=O)CN3CCN(S(=O)(=O)c4ccc([N+](=O)[O-])cc4)CC3=O)nc3cc(S(C)(=O)=O)ccc3c2=O)cc1 | viral replication, MTT | MT-4, IIIB |  | 2770 ± 500 nM |
| O=C(CN1c2c(-c3ccccc3)n[nH]c2-c2ccccc2S1(=O)=O)NN=Cc1cccs1 | viral replication | PBMC |  | 70200 nM |
| CC[C@H](C)CN(C[C@@H](O)[C@H](Cc1ccccc1)NC(=O)[C@@H](NC(C)=O)[C@@H](C)CC)S(=O)(=O)c1ccc2ncsc2c1 | viral replication, Monogram susceptibility | clade A patient isolate |  | 2.3 nM |
| COc1ccc(-n2c([C@H](Cc3cc(F)cc(F)c3)NC(=O)CN3CCN(S(=O)(=O)c4ccc([N+](=O)[O-])cc4)CC3=O)nc3ccccc3c2=O)cc1 | viral replication, MTT | MT-4, IIIB |  | 530 ± 150 nM |
| Cc1ccc(S(=O)(=O)N2C(=O)CSC2c2ccccc2[N+](=O)[O-])cc1 (stereo not shown) | viral cytopathicity, MTT | MT-4, IIIB |  | > 125000 nM |
| CC(=NNC(=O)CN1c2c(-c3ccccc3)n[nH]c2-c2ccccc2S1(=O)=O)c1sccc1Br | viral replication | PBMC |  | > 100000 nM |
| Cc1ccc(N2C(=O)CCC2(CN)c2ccc(OCc3ccccc3)cc2)cc1 (stereo not shown) | viral replication | human PBMC, LAI |  | 10800 nM |
